Results of several laboratories.
Lines come from different studies, so protocols differ.
B1: POL30 1-258 E113G (Saccharomyces cerevisiae, UniProt P15873); chain MLEAKFEEASLFKRIIDGFKDCVQLVNFQCKEDGIIAQAVDDSRVLLVSLEIGVEAFQEYRCDHPVTLGMDLTSLSKILRCGNNTDTLTLIADNTPDSIILLFEDTKKDRIAGYSLKLMDIDADFLKIEELQYDSTLSLPSSEFSKIVRDLSQLSDSINIMITKETIKFVADGDIGSGSVIIKPFVDMEHPETSIKLEMDQPVDLTFGAKYLLDIIKGSSLSDRVGIRLSSEAPALFQFDLKSGFLQFFLAPKFNDEE
B2: DDC1/MEC3/RAD17 1-612 (Saccharomyces cerevisiae); chain 1 MSFKATITESGKQNIWFRAIYVLSTIQDDIKITVTTNELIAWSMNETDTTLCQVRFQKSFFEEYEFKPHEIVFGENGVQVIEDTYGNSHKLYSFRVNGRHLTTISRKPDGDGIKSFTIAVNNTSTCPESLANRLIVVIEMDSLIVKEYCPQFQPIKYDPIIINLKYKRRFLDVFGTAASDRNPQEPLDPKLLDVFTNTERELTSALFNEEVESDIRKRNQLTAADEINYICCNSTLLKNFLDNCNVNVTDEVKLEINVHRLSITAFTKAVYGKNNDLLRNALSMSNTISTLDLEHYCLFTTIEDEKQDKRSHSKRREHMKSIIFKLKDFKNFITIGPSWKTTQDGNDNISLWFCHPGDPILMQMQKPGVKLELVEVTDSNINDDILEGKFIKTAISGSKEEAGLKDNKESCESPLKSKTALKRENLPHSVAGTRNSPLKVSYLTPDNGSTVAKTYRNNTARKLFVEEQSQSTNYEQDKRFRQASSVHMNMNREQSFDIGTTHEVACPRNESNSLKRSIADICNETEDPTQQSTFAKRADTTVTWGKALPAADDEVSCSNIDRKGMLKKEKLKHMQGLLNSQNDTSNHKKQDNKEMEDGLGLTQVEKPRGIFD; chain 2 MKLKLIVNGCEAPDDYKLLRTTINTVASLRKTAILRFNSERLTIISTPKSSLNSSNNGTILRGDTGQLWCTIPHDVFRLYTVISARELNTITMECNCDSLLSVFKRYDRVMNQGSSSNMTIKLQSMPEWNTNNGTLSGGTAGGVDTTSKPNPICALGITFEEIVHTSGPNDAIVMNGGVDEHNGLPTTVGTGNLLASNKVIMHSFKVPVKLLFRAQDTRIQEPMINYIQLMMYKLPPISGEFGSAFHGFIRRVERYSNVNHIHLMGVKKKEHGNEGDDVELKIIVNELDWHLEICWNGPLDSVIQRQEGLTDNPSQNQHIDTDGRQEEGSLPIIEADKPMSSLYTNTRDREMEENIRYDEDLLRIEDSSIADTRGNIYTADTSGDTEFNDISVMVEKAEQESSSTHEVIIRCKDWKVCSKLYAAFEEVVLAISHDESCVFHCSLDRGSLEDSEDVEKPRERGQIIYYIARSKGL; chain 3 MRINSELANKFSASTVHLEHITTALSCLTPFGSKDDVLIFIDADGLSFVRENNHVIKIQLLLSRELFMSYSYRNETEDHMKLCVKINHILDSVSVMNRNSDDIVECTLSYDGHGSPFVLIFEDSFISERVEYSTYLIKDFDTNGLELDRERISFEAIIKGEALHSALKDLKEIGCKECYVYAKTEANDENVFALISKSQLGFSKIKLPSNRSILEKLQVFDGDSTTVIDGFAVIGFFDFTSFDKIRKSTKIASKVLFRMDVHGVLSVNILSQTDDVIITDTTRPSNNRPGSIRQLQLPKDYPGIVIEVCMLEKESIDEAAQTEIELLMETNELGNRNSFKKSTIRKRYGTDKGNETSNDNLLQLNGKKIKLPSEEENNKNRESEDEENHCKYPTKDIPIFF
B3: tnsD 1-318 K235A/H236D (Escherichia coli, UniProt P13991); sequence looked up; chain MRNFPVPYSNELIYSTIARAGVYQGIVSPKQLLDEVYGNRKVVATLGLPSHLGVIARHLHQTGRYAVQQLIYEHTLFPLYAPFVGKERRDEAIRLMEYQAQGAVHLMLGVAASRVKSDNRFRYCPDCVALQLNRYGEAFWQRDWYLPALPYCPKHGALVFFDRAVDDHRHQFWALGHTELLSDYPKDSLSQLTALAAYIAPLLDAPRAQELSPSLEQWTLFYQRLAQDLGLTKSADIRHDLVAERVRQTFSDEALEKLDLKLAENKDTCWLKSIFRKHRKAFSYLQHSIVWQALLPKLTVIEALQQASALTEHSITTR
B4: human HSP60; sequence looked up; chain AKDVKFGADARALMLQGVDLLADAVAVTMGPKGRTVIIEQSWGSPKVTKDGVTVAKSIDLKDKYKNIGAKLVQDVANNTNEEAGDGTTTATVLARSIAKEGFEKISKGANPVEIRRGVMLAVDAVIAELKKQSKPVTTPEEIAQVATISANGDKEIGNIISDAMKKVGRKGVITVKDGKTLNDELEIIEGMKFDRGYISPYFINTSKGQKCEFQDAYVLLSEKKISSIQSIVPALEIANAHRKPLVIIAEDVDGEALSTLVLNRLKVGLQVVAVKAPGFGDNRKNQLKDMAIATGGAVFGEEGLTLNLEDVQPHDLGKVGEVIVTKDDAMLLKGKGDKAQIEKRIQEIIEQLDVTTSEYEKEKLNERLAKLSDGVAVLKVGGTSDVEVNEKKDRVTDALNATRAAVEEGIVLGGGCALLRCIPALDSLTPANEDQKIGIEIIKRTLKIPAMTIAKNAGVEGSLIVEKIMQSSSEVGYDAMAGDFVNMVEKGIIDPTKVVRTALLDAAGVASLLTTAEVVVTEIPKEEKDPGMGAMGGMGGGMGGGMF
B5: KAT8 172-235 (Homo sapiens, UniProt Q9H7Z6); sequence looked up; chain AITKVKYVDKIHIGNYEIDAWYFSPFPEDYGKQPKLWLCEYCLKYMKYEKSYRFHLGQCQWRQP
B6: GABARAP (Homo sapiens, UniProt O95166); chain MKFVYKEEHPFEKRRSEGEKIRKKYPDRVPVIVEKAPKARIGDLDKKKYLVPSDLTVGQFYFLIRKRIHLRAEDALFFFVNNVIPPTSATMGQLYQEHHEEDFFLYIAYSDESVYGL
B7: PSMD10 1-226 G214E (Homo sapiens, UniProt O75832); chain MEGCVSNLMVCNLAYSGKLEELKESILADKSLATRTDQDSRTALHWACSAGHTEIVEFLLQLGVPVNDKDDAGWSPLHIAASAGRDEIVKALLGKGAQVNAVNQNGCTPLHYAASKNRHEIAVMLLEGGANPDAKDHYEATAMHRAAAKGNLKMIHILLYYKASTNIQDTEGNTPLHLACDEERVEEAKLLVSQGASIYIENKEEKTPLQVAKEGLGLILKRMVEG
B8: NOTCH2 221-530 (Homo sapiens, UniProt Q04721); sequence looked up; chain LYVPCAPSPCVNGGTCRQTGDFTFECNCLPGFEGSTCERNIDDCPNHRCQNGGVCVDGVNTYNCRCPPQWTGQFCTEDVDECLLQPNACQNGGTCANRNGGYGCVCVNGWSGDDCSENIDDCAFASCTPGSTCIDRVASFSCMCPEGKAGLLCHLDDACISNPCHKGALCDTNPLNGQYICTCPQGYKGADCTEDVDECAMANSNPCEHAGKCVNTDGAFHCECLKGYAGPRCEMDINECHSDPCQNDATCLDKIGGFTCLCMPGFKGVHCELEINECQSNPCVNNGQCVDKVNRFQCLCPPGFTGPVCQ
B9: sufE 1-138 C51A/E107C (Escherichia coli, UniProt P76194); chain MALLPDKEKLLRNFLRCANWEEKYLYIIELGQRLPELRDEDRSPQNSIQGAQSQVWIVMRQNAQGIIELQGDSDAAIVKGLIAVVFILYDQMTPQDIVNFDVRPWFCKMALTQHLTPSRSQGLEAMIRAIRAKAAALS
B10: fliM 1-229 (Thermotoga maritima, UniProt Q9WZE6); sequence looked up; chain MSDVLSQEEINQLIEALMKGELKEEDLLKEEEEKKVKPYDFKRPSKFSKEQLRTFQMIHENFGRALSTYLSGRLRTFVDVEISIDQLTYEEFIRSVMIPSFIVIFTGDVFEGSAIFEMRLDLFYTMLDIIMGGPGENPPNRPPTEIETSIMRKEVTNMLTLLAQAWSDFQYFIPSIENVETNPQFVQIVPPNEIVLLVTASVSWGEFTSFINVCWPFSLLEPLLEKLSD
B11: NUP60 200-318 (Saccharomyces cerevisiae, UniProt P39705); sequence looked up; chain SMNTTLGSIGSRKYSFNYSSLPSPYKTTVYRYSAAKKIPDTYTANTSAQSIASAKSVRSGVSKSAPSKKISNTAAALVSLLDENDSKKNNAASELANPYSSYVSQIRKHKRVSPNAAPR
B12: EPOP 285-379 (Homo sapiens, UniProt A6NHQ4); sequence looked up; chain AKKRRLPAPPPRTAQPRRPAPTLPTTSTFSLLNCFPCPPALVVGEDGDLKPASSLRLQGDSKPPPAHPLWRWQMGGPAVPEPPGLKFWGINMDES
B13: PduE (Salmonella enterica, UniProt O31042); sequence looked up; chain MNTDAIESMVRDVLSRMNSLQGDAPAAAPAAGGTSRSAKVSDYPLANKHPEWVKTATNKTLDDFTLENVLSNKVTAQDMRITPETLRLQASIAKDAGRDRLAMNFERAAELTAVPDDRILEIYNALRPYRSTKEELLAIADDLENRYQAKICAAFVREAAGLYVERKKLKGDD
B14: NOTCH1 1758-1888 (Homo sapiens, UniProt P46531); sequence looked up; chain RKRRRQHGQLWFPEGFKVSEASKKKRREPLGEDSVGLKPLKNASDGALMDDNQNEWGDEDLETKKFRFEEPVVLPDLDDQTDHRQWTQQHLDAADLRMSAMAPTPPQGEVDADCMDVNVRGPDGFTPLMIA
B15: TFC7 1-435 (Saccharomyces cerevisiae, UniProt Q12415); chain MVVNTIYIARHGYRSNWLPEGPYPDPLTGIDSDVPLAEHGVQQAKELAHYLLSLDNQPEAAFASPFYRCLETVQPIAKLLEIPVYLERGIGEWYRPDRKPVIPVPAGYEILSKFFPGVISQEWDSTLTPNEKGETEQEMYMRFKKFWPLFIERVEKEYPNVECILLVTHAASKIALGMSLLGYDNPRMSLNENGDKIRSGSCSLDKYEILKKSYDTIDETDDQTSFTYIPFSDRKWVLTMNGNTEFLSSGEEMNWNFDCVAEAGSDADIKKRQMTKKTSSPIPEADDQTEVETVYISVDIPSGNYKERTEIAKSAILQYSGLETDAPLFRIGNRLYEGSWERLVGTELAFPNAAHVHKKTAGLLSPTEENETTNAGQSKGSSTANDPNIQIQEEDVGLPDSTNTSRDHTGDKEEVQSEKIYRIKERIVLSNVRPM

Molecule | tested on | test | test system | conditions | scale | measurement | value
B1 (POL30 1-258 E113G) | RAD30 (Saccharomyces cerevisiae, UniProt Q04049) | ELISA |  |  |  | binding | binds
B2 (DDC1/MEC3/RAD17 1-612) | RAD24/RFC2/RFC3/RFC4/RFC5 (Saccharomyces cerevisiae) | cryo-EM |  |  |  | binding | binds
B3 (tnsD 1-318 K235A/H236D) | tnsC 1-503 (Escherichia coli, UniProt P05846) | dynamic light scattering |  | together with: ATP |  | binding | binds
BAP1 (Homo sapiens, UniProt Q92560) | UFL1 (Homo sapiens, UniProt O94874) | pull-down |  |  |  | binding | binds
B4 (human HSP60) | PP6C (human) | co-immunoprecipitation, IP-MS | CYB5R4 knockout cells | concentration not given | reference: CYB5R4 knockout over parental | log2 fold change | 0.09
B5 (KAT8 172-235) | KAT7 (Homo sapiens, UniProt O95251) | pull-down |  |  |  | binding | binds
B6 (GABARAP) | HEATR3 (Homo sapiens, UniProt Q7Z4Q2) | pull-down |  |  |  | binding | binds
B7 (PSMD10 1-226 G214E) | Mdm2 (Mus musculus, UniProt P23804) | pull-down |  |  |  | binding | binds
rep (Escherichia coli, UniProt P09980) | polB full length, N-terminal FLAG (Escherichia coli, UniProt P21189) | pull-down |  |  |  | binding | binds
VVPGQFDDADSSD (RIOK1 residues 11-23; N-acetyl, C-terminal amide) | PRMT5/WDR77 fragment (Homo sapiens) | crystal structure | peptide |  |  | binding | binds
secB (Escherichia coli, UniProt P0AG86) | SecA dimer (UniProt P10408) | SEC-MALS |  |  |  | binding | binds
B8 (NOTCH2 221-530) | DLL4 27-400 G28S/F107L/I143F/H194Y/L206P (Homo sapiens, UniProt Q9NR61) | SPR |  |  |  | binding | binds
B9 (sufE 1-138 C51A/E107C) | sufS 1-406 (Escherichia coli, UniProt P77444) | crystal structure |  |  |  | binding | binds
B10 (fliM 1-229) | fliG 104-334 (Thermotoga maritima, UniProt Q9WY63) | NMR titration |  |  |  | binding | binds
B11 (NUP60 200-318) | NUP85 (Saccharomyces cerevisiae, UniProt P46673) | cross-linking |  |  |  | binding | binds
KESALRKQDLWLLFDPLFR (TACC3 to 568 550-568 S558D/Y560W/K562L/L567F (Homo sapiens, UniProt Q9Y6A5); sequence looked up) | CLTC 358-574 (Homo sapiens, UniProt Q00610) | peptide array | peptide |  |  | binding | binds
B12 (EPOP 285-379) | SUZ12/RBBP4 SUZ12 76-545 (Homo sapiens) | pull-down |  |  |  | binding | binds
B13 (PduE) | PduG (Salmonella enterica Typhimurium LT2, UniProt O31043) | cross-linking |  |  |  | binding | binds
ASEFFVDGLDSDERTLEHFKRWLQPDKVAI (CCDC32 121-150 (Mus musculus, UniProt Q8BS39)) | Ap2m1 122-435 (Mus musculus, UniProt P84091) | pull-down |  |  |  | binding | binds
B14 (NOTCH1 1758-1888) | RBPJ 25-449 (Homo sapiens, UniProt Q06330) | ITC |  |  |  | binding | binds
human annexin A2 | PP6C (human) | co-immunoprecipitation, IP-MS | CYB5R4 knockout cells | concentration not given | reference: CYB5R4 knockout over parental | log2 fold change | 0.1
B15 (TFC7 1-435) | TFC3 1-1160 (Saccharomyces cerevisiae, UniProt P34111) | cryo-EM |  |  |  | binding | binds

Some of these lines once more:
Molecule | tested on | test | test system | conditions | scale | measurement | value
ASEFFVDGLDSDERTLEHFKRWLQPDKVAI (CCDC32 121-150 (Mus musculus, UniProt Q8BS39)) | Ap2m1 122-435 (Mus musculus, UniProt P84091) | pull-down |  |  |  | binding | binds
B14 (NOTCH1 1758-1888) | RBPJ 25-449 (Homo sapiens, UniProt Q06330) | ITC |  |  |  | binding | binds
human annexin A2 | PP6C (human) | co-immunoprecipitation, IP-MS | CYB5R4 knockout cells | concentration not given | reference: CYB5R4 knockout over parental | log2 fold change | 0.1
